Published values of several laboratories.
Each numbered part is a random draw from the data of one study; scales do not carry over between parts.

Series 1
Target: Interferon regulatory factor 7, full length, phosphomimetic (IRF7, Homo sapiens, UniProt Q92985, residues 1-503, S101K/S471D/S472D/S475D/S476D/S477D/S483D/S484D/S487D)
UniProt Q92985, sequence (whole entry, unmodified, looked up): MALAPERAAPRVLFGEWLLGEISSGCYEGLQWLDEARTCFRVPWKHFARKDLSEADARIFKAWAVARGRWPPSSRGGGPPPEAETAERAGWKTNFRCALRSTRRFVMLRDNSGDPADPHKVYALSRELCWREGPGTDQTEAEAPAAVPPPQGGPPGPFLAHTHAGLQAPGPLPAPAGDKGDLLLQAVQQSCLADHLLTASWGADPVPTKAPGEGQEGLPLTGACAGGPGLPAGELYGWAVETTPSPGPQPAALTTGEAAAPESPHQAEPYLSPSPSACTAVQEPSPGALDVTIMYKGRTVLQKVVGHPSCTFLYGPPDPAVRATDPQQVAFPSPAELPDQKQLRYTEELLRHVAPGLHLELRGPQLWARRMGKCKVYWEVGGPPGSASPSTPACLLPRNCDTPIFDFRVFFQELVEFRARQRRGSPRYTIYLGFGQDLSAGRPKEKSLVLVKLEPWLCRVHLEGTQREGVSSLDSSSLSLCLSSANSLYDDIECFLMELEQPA
Technique: protein-binding microarray
Form: double-stranded DNA, one strand shown
Medium: in vitro
Concentration: 250 nM
Setting: 60-bp whole probe
With: salmon DNA 0.4 mg/ml
Relative to: random background probes
Reading: higher = stronger binding
Constant ends, left off below: GCCTAGCAC … GTCTTGATTCGCTTGACGCTGCTG
Oligonucleotide	log fluorescence
GGCGGTCTCGGTCTCGGGACGTGCTAG	0.836 z-score
GACGGTATCGACACTGGGGAAGTGCTA	-0.481 z-score
GACGGTTTCCAACTGCTGACGTGCTAG	1.66 z-score
TTAGGACTGGGGAATCGGTTAGTGCTA	0.0951 z-score
GTTGCTCTCCGGGGTCTGTGAGTGCTA	-0.284 z-score
TATGTCTGGCCCAAGCAGCCGTGCTAG	-0.293 z-score
TTCGAACTGGGGACTGGATTAGTGCTA	-0.132 z-score
GTAGGTTTCGGTCTCGGTTAGTGCTAG	8.28 z-score
GACGAACTGAGGTATCGAGACGTGCTA	-0.309 z-score
ATATGTATATATGTGTATATGTGCTAG	0.496 z-score
ACTGAAATCACCCTTGGAAGTGTGCTA	-0.512 z-score
TAAAATTTTGCTTCTAGAACGTGCTAG	-0.0486 z-score
TTTGGTTTCGGTATCGGTTAGTGCTAG	11.9 z-score
GACGGACTAGACACTGGGGACGTGCTA	-0.21 z-score
TTGGATTTCAGTCTCGATTAGTGCTAG	1.98 z-score
TTAGGTATCGGGTTCCGGTTAGTGCTA	3.04 z-score
TCACATATTTATCTGCAACTGTGCTAG	0.381 z-score

Series 2
Target: Ras GTPase-activating protein-binding protein 1, full length (G3BP1, Homo sapiens, UniProt Q13283)
UniProt Q13283, sequence (whole entry, looked up): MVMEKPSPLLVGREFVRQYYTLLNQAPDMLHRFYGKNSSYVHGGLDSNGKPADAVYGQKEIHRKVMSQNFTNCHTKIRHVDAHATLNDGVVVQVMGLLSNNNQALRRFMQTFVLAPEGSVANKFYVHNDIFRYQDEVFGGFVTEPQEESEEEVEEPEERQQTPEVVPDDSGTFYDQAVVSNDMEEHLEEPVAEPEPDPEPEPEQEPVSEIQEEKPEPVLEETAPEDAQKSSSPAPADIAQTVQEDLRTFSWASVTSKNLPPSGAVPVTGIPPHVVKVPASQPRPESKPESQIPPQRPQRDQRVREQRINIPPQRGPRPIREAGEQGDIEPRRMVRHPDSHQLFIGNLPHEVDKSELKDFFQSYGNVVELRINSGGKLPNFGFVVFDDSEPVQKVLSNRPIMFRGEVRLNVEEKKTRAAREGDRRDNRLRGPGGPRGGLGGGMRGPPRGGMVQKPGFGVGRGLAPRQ
Technique: RNA Bind-n-Seq
Form: RNA
Medium: in vitro
Concentration: 200 nM
Setting: whole 134-nt RNA, ends assumed
With: 150 mM LiCl
Relative to: input library
Reading: higher = stronger binding
Each molecule: 7-deaza-guanosine replaces G
Constant ends, left off below: GGGAGUUCUACAGUCCGACGAUC … UGGAAUUCUCGGGUGUCAAGG
Oligonucleotide	log2 enrichment
UCCUGUGCUACACAUCGUAUGUACCGAAUCGGGGUUUUUGGGGAAAAAGGGGAAAGGGGAAAGUAUUAUGUUACGCCGUUCGGAUCUGCA	0.0105
ACCAUGCAGGUGGGCAUCUUUGGGAAGUGGGGCAAGGGGGGAAAAGGGAGGGGGGUAACACUUUGGGAACAGGUGGUCCCAGGUCGUUUC	0.415
GCAGGAAGUGAAAACAAAUGGAAAUGCUUCGGAUAGUGGCAGGGGUGGGGGUUGCUAAGGAAAGGGUGGGAUGGGAGUGGGUAAAGAGUU	-0.2
CACAGACAACACGCACCCACACAGACACAGAGGGAAGGGGUUGGGAUGGGGACAGGGUGCACAGCAGGGCUGGGUAGGACCCCAGCCCCU	0.548
GUCCUGUGCUACACAUCGUAUGUACCGAAUCAAACCCAAACCCCCCCAAAUUUUUAAAAAAGUAUUAUGUUACGCCGUUCGGAUCUGCAC	0.909
GGUAGCAAGAGCUCCAGAGAGAAGUCGAGGAAGAGAGAGACGGGGUCAGAGAGAGCGCGCGGGCGUGCGAGCAGCGAAAGCGACAGGGGC	0.773
AGUCCUGUGCUACACAUCGUAUGUACCGAAUCGGGAAAAAAAGGGAAAAAGGGAGGGAAAGUAUUAUGUUACGCCGUUCGGAUCUGCACU	-0.395
UGGGAGGUGGCUUUUGUUUAUUUUUUUAGCUCAUUUCCAGGGGUGGGAAUUUUUUUUUAAUAUGUGUCAUGAAUAAAGUUGUUUUUGAAA	-0.288
UCAAGUCCUGUGCUACACAUCGUAUGUACCGAAUCGGGGCCGGGCCGGCCGGGGAAAGUAUUAUGUUACGCCGUUCGGAUCUGCACUUCC	0.684
AGUCCUGUGCUACACAUCGUAUGUACCGAAUCGGGUUUGGGAAAGGGUUUUUUUGGGAAAGUAUUAUGUUACGCCGUUCGGAUCUGCACU	-1.18
CACAGACAACACGCACCCACACAGACACAGAGGGAAGGGGUUGGGAUGGGGACAGGGUGCACAGCAAAGCGGGGUAGGACCCCAGCCCCU	0.151

Series 3
Target: RNA binding protein fox-1 homolog 2, RRM domain, GST-SBP tag (RBFOX2, Homo sapiens, UniProt O43251-10, residues 100-194)
Technique: RNA Bind-n-Seq
Form: RNA
Medium: in vitro
Concentration: 365 nM
Setting: natural RNA segment, single round, ends assumed
Relative to: no-protein control
Reading: higher = stronger binding
Constant ends, left off below: GGGAGUUCUACAGUCCGACGAUC … UGGAAUUCUCGGGUGCCAA
Construct (chain): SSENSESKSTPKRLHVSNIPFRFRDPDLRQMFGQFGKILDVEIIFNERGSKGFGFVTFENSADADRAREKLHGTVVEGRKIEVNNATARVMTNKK
Oligonucleotide	RBNS enrichment (R)
CUUCUAAAAUAAAAUCUCUAGUCCAGACAUAUUUGACAGUAUUGUUUGUCUGAAUGUGAAAUAUCCCCCAUUUUAUCCCAUAAAUCAUUUGUUUUCCAAUGAUGUGUAUU	0.467
CAAGUGAUUAAGUGUGUAUUUGUACCCUAGAUGAUAUGAACCAGCAGUCUUGUUUUGGCAUCAUCCUCAUCAUGUUGUAUUCCAGCUUCUUAAGUGGAAGGAAAAGAGUG	0.711
ACUGUUACACCCUUUGAACGGAUGCUUUAGCUCUGAUGUCGUCACAGAGCCUUGGUUUAUCCUGUACCUGUCAUUUCUGUUUGCAACUGGUUGCUGUAGCAACAAGAGUG	0.733
GCCACCACACCAUCACCAUCGACAGAACAGUCCUUAAUCCAGAAACCUGAAAUGAAGGAAGAGGAGACUCUGCGCAGAGCACUUUGGGUCCGGAGGGCGAGACUCCGGCG	0.343
UAAUUACAAGUCCACAUCAUGAGACAAACUGAAGUAACUUAGGCAAAACAGGUAAAACAGUCAUAGUUUUGUGAUUAUAAAUGAGAUGAAUGUUCACCCUUCCAAGAUCU	0.199
AUGUUUUGUUUCCUUUCCUUUGUUUUUUCUUUUAACUGGAAUAAUUACCAUUGAAAAAGAAGUUCCUUUGAGCAUGUAUGUGUCUGCCUCUAGGAUGAGCUCAGAGCGAG	1.14
UACAAUUUAUACAGCUUUCCUAGCAUUUUAAAUGGAAAUGUCAAUAAAUGCUAUGAAUUGGUGUCAAGUGAUAUUUUCUGUUGAUUUCCUUUGCAACAUGAUAGUUUUCU	2.69
UUCACAUGCUCAAUUGAUAUUUUUUGCUGCUUCCUCGGCCCAGGGAGAAAGCAUGUCAGGACAGAGCUGUUGGAUUGGCUUUGAUAGAGGAAUGGGGAUGAUGUAAGUUU	1.12
AAGGGCAGUGGGACUUGAGUAUUCUACAGAAAAAUUGAUACAGUCAUGCAAGAGGUAGGGGGGUAAAGAAUAAGUAGUCCUAUCAAUCAGGUAUAAGUUGUUUCAAGAGA	0.508
GCUCUUCUUACUGUAUUUAUUAAAACUUGUAAUAAUGUGAUUUUUUUCAAGGAUAUUAGUUCAAAUUGAAAUGGUUUCACGCCACACGGAAAUCUUUAAGUUAUUUGUUG	0.422
AGCUGUGGGCAGUGGAGGCAGAUAGCACUUCUGAGGGAGACUCAUUAAAGCAUUGGCUUUGCUACCAGCUGUCUUCUGUAUUGUGGUUCAGUUUACCUUCAGUGGAAAUC	0.774
CUUGGGGUCUGAACUAUGGAGGCUUGGUUGGGGAAUGUGGAUGCCCUUAGAUCCUUUUCUGGGUGAUAAUAGGGAUGUGGGCCUUUUGUGUUUAAGGAGAGUUUCUAAUA	1.48

Series 4
Target: Sal-like protein 4, full length isoform B (SALL4, Homo sapiens, UniProt Q9UJQ4-2, residues 1-616)
Technique: universal PBM
Form: double-stranded DNA, one strand shown
Medium: in vitro
Concentration: not given
Setting: 8-mer, flanks averaged, mean of replicates
Reading: higher = stronger binding
Oligonucleotide	E-score
CCTAACAC	-0.0199
AAGCGCTA	0.0352
ACGGCAAG	-0.115
ACTCCGCT	-0.174
TATCCTAA	0.193
GAGAGAGC	-0.157
CTACAGAC	-0.0354
ACTGGATC	-0.138
AGCGAGCC	-0.241
CGTAGTCA	-0.0219
ACGGGGAG	-0.395
ATAAGGAT	0.225
AACTAGTG	0.0688
CGCAGATC	-0.18
GTTGACGA	-0.0948
ATTTGCCC	-0.0212
CGCGTTAA	-0.16
ATCGCCTC	0.109
ATCATCAC	0.0653
AAAGCTTC	-0.0232
AAGAGTAT	0.251
TCCCGAAA	0.118
ACTCGTGC	-0.143

A few entries again (series 3):
Oligonucleotide	RBNS enrichment (R)
UAAUUACAAGUCCACAUCAUGAGACAAACUGAAGUAACUUAGGCAAAACAGGUAAAACAGUCAUAGUUUUGUGAUUAUAAAUGAGAUGAAUGUUCACCCUUCCAAGAUCU	0.199
AUGUUUUGUUUCCUUUCCUUUGUUUUUUCUUUUAACUGGAAUAAUUACCAUUGAAAAAGAAGUUCCUUUGAGCAUGUAUGUGUCUGCCUCUAGGAUGAGCUCAGAGCGAG	1.14
UACAAUUUAUACAGCUUUCCUAGCAUUUUAAAUGGAAAUGUCAAUAAAUGCUAUGAAUUGGUGUCAAGUGAUAUUUUCUGUUGAUUUCCUUUGCAACAUGAUAGUUUUCU	2.69
UUCACAUGCUCAAUUGAUAUUUUUUGCUGCUUCCUCGGCCCAGGGAGAAAGCAUGUCAGGACAGAGCUGUUGGAUUGGCUUUGAUAGAGGAAUGGGGAUGAUGUAAGUUU	1.12
AAGGGCAGUGGGACUUGAGUAUUCUACAGAAAAAUUGAUACAGUCAUGCAAGAGGUAGGGGGGUAAAGAAUAAGUAGUCCUAUCAAUCAGGUAUAAGUUGUUUCAAGAGA	0.508
